Results pooled from the literature.
Each line is one published result; not all experiments were run side by side. Several values in a cell are separate wells, animals, samples, runs or records.

| Compound | tested on | test | test system | conditions | how to read | quantity | value |
| --- | --- | --- | --- | --- | --- | --- | --- |
| O=c1nc(SCc2cc(F)cc(C(F)(F)F)c2)nc(SCc2csc3ccc(Cl)cc23)[nH]1 | TOP2B (Homo sapiens, UniProt Q02880) | decatenation |  | 31.25 µM, replicate 2 |  | decatenated DNA | 1% |
| O=C(O)c1ccc(O)cc1 |  | binding, MIDAS equilibrium dialysis LC-MS | A2AR-BRIL thermostabilized | concentration not given | relative to: no-protein control | log2 fold change | -0.308 |
| O=C(COP(=O)(O)O)[C@@H](O)[C@H](O)[C@H](O)COP(=O)(O)O | Transcription elongation regulator 1 (Homo sapiens, UniProt O14776) | thermal proteome profiling, item: TCERG1 | HepG2 cell lysate | concentration not given, 57 over 37 °C, mean | relative to: compound over control | thermal stability ratio | 0.582 |
| CN1CCC(c2cc(-c3ccncc3)c(-c3ccc(F)cc3)[nH]2)CC1 | Plasmodium falciparum | nanoluciferase | 3D7 Hyp1-Nluc | 2 µM, 72 h | relative to: DMSO | parasite growth | 96.8% |
| O=S(=O)(O)C1CCNCC1 | SLC6A6 (Homo sapiens, UniProt P31641, G62A) | binding, microscale thermophoresis |  | 125 µM, room temperature, together with: 50 nM labelled protein | higher = more binding | normalised MST signal | -0.0218 |
| Nc1nc2c(ncn2[C@@H]2O[C@H](COP(=O)(O)O)[C@@H](O)[C@H]2O)c(=O)[nH]1 | GUK1 (Homo sapiens, UniProt Q16774, D103A) | enzyme activity, NADH-coupled |  | 7.812 µM |  | reaction rate | 2.71 s⁻¹ and 3.55 s⁻¹ and 1.42 s⁻¹ |
| Nc1ncnc2c1ncn2[C@@H]1O[C@H](COP(=O)(O)CP(=O)(O)OP(=O)(O)O)[C@@H](O)[C@H]1O | P2X purinoceptor 1 (P2RX1, Homo sapiens, UniProt P51575, E282A) | calcium influx |  | 3.16 nM | relative to: ionomycin response | calcium influx | 2.28% and 0% |
| COCc1nc2nc(C)cc(Nc3ccc(S(F)(F)(F)(F)F)cc3)n2n1 | Dihydroorotate dehydrogenase (quinone) (pyrD, Acinetobacter baumannii, UniProt B7GZW7) | enzyme activity, inhibitor, colorimetric HTS, item: DCIP reduction |  | 3 µM | direction not given | robust Z-score | 18.3 |
| O=C(O)/C=C(/CC(=O)O)C(=O)O |  | binding, MIDAS equilibrium dialysis LC-MS | A2AR-BRIL thermostabilized | concentration not given | relative to: no-protein control | log2 fold change | -0.189 |
| NC/C(=C\F)COc1cccc(Cn2c(=S)[nH]c(=O)c3[nH]cnc32)c1 | Amine oxidase [copper-containing] 3 (Rattus norvegicus, UniProt O08590) |  | rat adipose tissue | 0.3333 µM |  | inhibition | 98.4% |

Repeated from above:
| Compound | tested on | test | test system | conditions | how to read | quantity | value |
| --- | --- | --- | --- | --- | --- | --- | --- |
| NC/C(=C\F)COc1cccc(Cn2c(=S)[nH]c(=O)c3[nH]cnc32)c1 | Amine oxidase [copper-containing] 3 (Rattus norvegicus, UniProt O08590) |  | rat adipose tissue | 0.3333 µM |  | inhibition | 98.4% |
| O=S(=O)(O)C1CCNCC1 | SLC6A6 (Homo sapiens, UniProt P31641, G62A) | binding, microscale thermophoresis |  | 125 µM, room temperature, together with: 50 nM labelled protein | higher = more binding | normalised MST signal | -0.0218 |
